Published values of several laboratories.
Every numbered part comes from another study and shows a few of its results, in no order.

Set 1
SMILES: COc1cc(C(=O)N2CCC(N3CCN(C)CC3)CC2)ccc1Nc1ncc2c(n1)N(C)c1ccccc1C(=O)N2C
target | test | test system | setting | inhibition
WNK1/WNK2 (mouse) | probe labelling, inhibitor, KiNativ ActivX ATP probe | mouse brain lysate | 0.1 µM, ATP loop peptide GSFkTVYK | 8.4%
TRKC (mouse) | probe labelling, KiNativ, item: LYS1 site peptide | brain tissue lysate (mouse) | 1 µM, together with: ADP acyl-phosphate probe | 14.8%
NDR1 (mouse) | probe labelling, KiNativ, item: DTGHVYAMkILR peptide, LYS1 site | brain tissue lysate (mouse) | 0.1 µM, together with: ATP acyl-phosphate probe | -0.4%
SRPK1/SRPK2 (mouse) | probe labelling, inhibitor, KiNativ ActivX ATP probe | mouse brain lysate | 1 µM | -32.1%
mouse CaMK2δ | probe labelling, KiNativ ATP probe | mouse brain lysate | 1 µM | 21.7%
MAP2K1 and MAP2K2 human | KiNativ profiling | human PBMC | concentration not given, LYS2 site, together with: ADP acyl phosphate probe | 11.8%

Set 2
Structure (SMILES): CC(C)n1cnc(-c2ccc(F)cc2)c1-c1ncc(C(=O)Nc2ccc(N3CCN(C)CC3)cc2)[nH]1
Method: phase 2a clinical trial
Species: patients with idiopathic pulmonary fibrosis
item | dose | setting | patients with treatment-emergent adverse events
benign prostatic hyperplasia | dose not given | Grade 4, maximum intensity, all drug arms total | 0%
electrocardiogram high voltage | 60 mg once daily | Grade 2 | 0%
electrocardiogram QT prolonged | 60 mg once daily | Grade 5 | 0%
left bundle branch block | 60 mg once daily | Grade 2 | 0%
electrocardiogram QT prolonged | dose not given | Grade 4, all drug arms total | 0%
drug-induced liver injury | 60 mg once daily | Grade 5 | 0%

Set 3
Species: human
Medium: microsomes or S9
Concentration: 2 µM
Time: 0.5 h
Structure (SMILES) | remaining compound
COc1ccccc1-n1nc2c(C)nnc(C)c2c1C | 99.8%
Cc1ccc(S(=O)(=O)c2c(-c3ccccc3)n(C#Cc3ccccc3)c3ccccc23)cc1 | 38.5%
CC(C)Oc1cc(N2C=NN(C)CC2)ccc1[N+](=O)[O-] | 21%
Cc1nn(-c2ccccn2)c2c1-c1oncc1CC2 | 3.08%
O=C(c1ccc2[nH]cnc2c1)N1CCc2nc3cc(-c4ccccc4Cl)[nH]n3c(=O)c2C1 | 83.5%

Set 4
Target: Alpha-2A adrenergic receptor (ADRA2A, Homo sapiens, UniProt P08913)
Chain of UniProt P08913 (whole entry, looked up): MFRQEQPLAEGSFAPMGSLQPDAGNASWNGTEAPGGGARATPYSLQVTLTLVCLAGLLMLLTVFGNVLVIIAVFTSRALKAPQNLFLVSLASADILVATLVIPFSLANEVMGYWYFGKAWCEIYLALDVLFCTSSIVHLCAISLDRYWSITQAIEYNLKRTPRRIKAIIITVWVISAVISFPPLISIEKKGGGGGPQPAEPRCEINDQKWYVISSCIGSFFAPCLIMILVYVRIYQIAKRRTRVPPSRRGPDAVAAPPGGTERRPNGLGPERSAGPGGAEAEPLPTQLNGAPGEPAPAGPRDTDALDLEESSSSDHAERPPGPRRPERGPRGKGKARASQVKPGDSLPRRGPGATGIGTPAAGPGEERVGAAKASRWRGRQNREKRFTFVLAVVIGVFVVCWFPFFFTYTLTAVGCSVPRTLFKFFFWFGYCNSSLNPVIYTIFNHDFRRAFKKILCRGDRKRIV
Observed: ligand displacement
Concentration: 10 µM
Compound | inhibition [%]
CN(C)CC#Cc1ccc(OCCCc2sc(N3CCc4cccc(C(=O)Nc5nc6ccccc6s5)c4C3)nc2C(=O)O)c(F)c1 | 7.32
CNC(=O)Nc1ccc2c(c1)CC[C@]21OC(=O)N(CC(=O)N(Cc2ccc(F)cc2)[C@@H](C)C(F)(F)F)C1=O | 3.72
CC(=O)N1CCC(c2ccc(C(=O)NC3=NCCN3)cc2C(F)(F)F)CC1 | 4.92
O=C1NC(c2ccccn2)Sc2ccccc21 (centres unmarked) | 12.7
CC[C@H](CC(=O)O)n1c(=O)c2ncccc2n(Cc2cn(C)c3cc(C)cc(C)c23)c1=O | 19.6
CCC(=NO)C(C)=Cc1ccc(F)c(C)c1 | 2.82
CN(C)c1ncnc(-c2ccc3nc(Nc4cc(CN5CCN(C(=O)CC(F)(F)F)CC5)ccn4)[nH]c3c2)c1Cl | 15.7
CN1CCN(C(=O)C(C)(C)c2ccc(C(=O)Nc3cn4cc(-c5cc(C(C)(C)C)cc(C(C)(C)C)c5)ccc4n3)cc2)CC1 | 83.7
C[C@H](c1ccnc(Nc2nc3ccc(-c4cc(N(C)C)ncn4)cc3[nH]2)c1)N1CCN(C(=O)CC(F)(F)F)CC1 | 24.2
